Measurements collected from several papers.
U2AF2: U2AF2 148-342 (Homo sapiens, UniProt P26368)
Sequence of UniProt P26368 (whole entry, looked up): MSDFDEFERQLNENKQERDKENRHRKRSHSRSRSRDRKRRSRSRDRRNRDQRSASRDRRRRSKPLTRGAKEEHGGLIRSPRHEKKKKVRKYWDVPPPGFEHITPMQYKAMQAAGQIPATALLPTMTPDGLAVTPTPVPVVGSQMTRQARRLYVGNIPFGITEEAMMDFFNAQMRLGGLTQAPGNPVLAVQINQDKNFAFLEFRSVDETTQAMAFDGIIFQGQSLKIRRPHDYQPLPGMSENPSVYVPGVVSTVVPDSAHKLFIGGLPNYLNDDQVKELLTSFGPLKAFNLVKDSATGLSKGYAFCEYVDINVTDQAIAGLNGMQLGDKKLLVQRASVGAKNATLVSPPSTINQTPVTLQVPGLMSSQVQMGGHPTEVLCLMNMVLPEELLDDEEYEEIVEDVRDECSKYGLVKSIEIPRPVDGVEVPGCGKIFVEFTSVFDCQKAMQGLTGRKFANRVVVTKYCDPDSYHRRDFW
B1: ELAVL1 2-99 (Homo sapiens, UniProt Q15717); sequence looked up; chain SNGYEDHMAEDCRGDIGRTNLIVNYLPQNMTQDELRSLFSSIGEVESAKLIRDKVAGHSLGYGFVNYVTAKDAERAINTLNGLRLQSKTIKVSYARPS
B2: CRYAB (Homo sapiens, UniProt P02511); chain MDIAIHHPWIRRPFFPFHSPSRLFDQFFGEHLLESDLFPTSTSLSPFYLRPPSFLRAPSWFDTGLSEMRLEKDRFSVNLDVKHFSPEELKVKVLGDVIEVHGKHEERQDEHGFISREFHRKYRIPADVDPLTITSSLSSDGVLTVNGPRKQVSGPERTIPITREEKPAVTAAPKK
B3: RAD52 1-418 K152A/R153A (Homo sapiens, UniProt P43351); chain MSGTEEAILGGRDSHPAAGGGSVLCFGQCQYTAEEYQAIQKALRQRLGPEYISSRMAGGGQKVCYIEGHRVINLANEMFGYNGWAHSITQQNVDFVDLNNGKFYVGVCAFVRVQLKDGSYHEDVGYGVSEGLKSKALSLEKARKEAVTDGLAAALRSFGNALGNCILDKDYLRSLNKLPRQLPLEVDLTKAKRQDLEPSVEEARYNSCRPNMALGHPQLQQVTSPSRPSHAVIPADQDCSSRSLSSSAVESEATHQRKLRQKQLQQQFRERMEKQQVRVSTPSAEKSEAAPPAPPVTHSTPVTVSEPLLEKDFLAGVTQELIKTLEDNSEKWAVTPDAGDGVVKPSSRADPAQTSDTLALNNQMVTQNRTPHSVCHQKPQAKSGSWDLQTYSADQRTTGNWESHRKSQDMKKRKYDPS
B4: NEMO 44-113 (Homo sapiens); chain GSWEQGAPETLQRCLEENQELRDAIRQSNQILRERCEELLHFQASQREEKEFLMCKFQEARKLVERLGLEKLD
B5: FCY1 (yeast, UniProt Q12178); sequence looked up; chain MVTGGMASKWDQKGMDIAYEEAALGYKEGGVPIGGCLINNKDGSVLGRGHNMRFQKGSATLHGEISTLENCGRLEGKVYKDTTLYTTLSPCDMCTGAIIMYGIPRCVVGENVNFKSKGEKYLQTRGHEVVVVDDERCKKIMKQFIDERPQDWFEDIGE
B6: NINJ1 (Homo sapiens, UniProt Q92982); sequence looked up; chain MDSGTEEYELNGGLPPGTPGSPDASPARWGWRHGPINVNHYASKKSAAESMLDIALLMANASQLKAVVEQGPSFAFYVPLVVLISISLVLQIGVGVLLIFLVKYDLNNPAKHAKLDFLNNLATGLVFIIVVVNIFITAFGVQKPLMDMAPQQ
B7: TAF15 7-99 del28-42 (Homo sapiens, UniProt Q92804); sequence looked up; chain YGQSGGEQQSYSTYGNPGSQGDSSYGQNYSGYSSYGQSQSGYSQSYGGYENQKQSSYSQQPYNNQGQQQNMESSGSQG
B8: spo0J K252A/K255A/K259A (Bacillus subtilis, UniProt P26497); chain MAKGLGKGINALFNQVDLSEETVEEIKIADLRPNPYQPRKHFDDEALAELKESVLQHGILQPLIVRKSLKGYDIVAGERRFRAAKLAGLDTVPAIVRELSEALMREIALLENLQREDLSPLEEAQAYDSLLKHLDLTQEQLAKRLGKSRPHIANHLRLLTLPENIQQLIAEGTLSMGHGRTLLGLKNKNKLEPLVQKVIAEQLNVRQLEQLIQQLNQNVPRETKKKEPVKDAVLKERESYLQNYFGTTVNIARQAKKGAIEIEFFSNEDLDRILELLSERES
B9: NUT1 1-1132 (Saccharomyces cerevisiae, UniProt P53114); chain MEKESVYNLALKCAERQLTSMEFSNLYKEFFNEKFPSLIQEEEEDTTTTANINEVKKASDLVDTPSNNTAATADTTHLHEALDIVCSDFVKILNLEKPLILADYIVEVLLVNYNSDMIKCFLPKLNSVRNSLLLAHFFSKSCSFFAKLSDTLIIDQVRKDLGNVIVPNILSLDMNSMNKELIAIVSKLLQTTLKLSPSPILLTSAGCKNGSFTLLNQLSQTNKLLFKRVSQTFEAKLHFKDTKPFLNKDSTNEFVGSPSLTSPQYIPSPLSSTKPPGSVNSAAKYKDMKLLRYYKNIWLNNKIINWEISNPDFLSKYSAITSSIFQESFNSVQNLDQLLTDLIETSFTCFAQFVSNKQYHQANSNLTLLERKWVIFITKHLPLLILENSSRSPRVVTNALDNIDEKVVKAIRIYFTEKDDNKTNNEDLFDDYPSTSLDIRHDFIKGLIMLNLQPASVINNYLREDQMIDTSILPTRDDLFVRNLQGIQEVVHNTNSFIISSLDTLELESITESITHDSSNGLFQVLHNFESVAPTKQREIVKAFLSIFEDAIKELNYNRIAKICALLFFNFSHSLTTILSFSSPAALMKTLIKFVDLSRNGRNGSNGNDESSEYETINISLSFSWAILLIINLTQTYGISVVDVALKYPELSIKNSFIINFISNLPNVSDKYYLEESNVNDSDMLTKSHNTVQSWLCDLFVNGSITDQLIQNIETRQLANLIPFIVKQVLLSVEIGVLTDISSLIGGFEYFLQPLLLVGLIKTFYWLEQFLSCVKNDTISEDILQGIFNLLNTLFNPVTLNEDSKAFHTAVLRLNAIPLLKVLRKFRVQSQSNYGIYSSDAQGDPNLEPLIAKLVAVLNVSPVYDVDPRIINSENDYSRKQLGYGKFLILNENPINKIMTNQINSFWSLHSSTYYNLDYLFELIELVTPKSFLFDVLKTLEYKLATYGVPGSENKRGSLDSEHVFDYFFYFLVLYDVKTAEEASQLIEYMENDAKKSKGDVDIKGEDLHEKNDSAEVRQETQPKAEATQDDDFDMLFGENDTSTQAYEEEEENEDNDGNNRTNNVPMIKAEETPSKTNKISILKRHSFAVLLHERKLLNDLALENGEITKTENEKFISYHDKYLCMLKTCVF
B10: exbD 61-141 (Escherichia coli, UniProt P0ABV2); sequence looked up; chain EKPVYLSVKADNSMFIGNDPVTDETMITALNALTEGKKDTTIFFRADKTVDYETLMKVMDTLHQAGYLKIGLVGEETAKAK
B11: HELLS 1-460 (Homo sapiens, UniProt Q9NRZ9); sequence looked up; chain MPAERPAGSGGSEAPAMVEQLDTAVITPAMLEEEEQLEAAGLERERKMLEKARMSWDRESTEIRYRRLQHLLEKSNIYSKFLLTKMEQQQLEEQKKKEKLERKKESLKVKKGKNSIDASEEKPVMRKKRGREDESYNISEVMSKEEILSVAKKNKKENEDENSSSTNLCVEDLQKNKDSNSIIKDRLSETVRQNTKFFFDPVRKCNGQPVPFQQPKHFTGGVMRWYQVEGMEWLRMLWENGINGILADEMGLGKTVQCIATIALMIQRGVPGPFLVCGPLSTLPNWMAEFKRFTPDIPTMLYHGTQEERQKLVRNIYKRKGTLQIHPVVITSFEIAMRDRNALQHCYWKYLIVDEGHRIKNMKCRLIRELKRFNADNKLLLTGTPLQNNLSELWSLLNFLLPDVFDDLKSFESWFDITSLSETAEDIIAKEREQNVLHMLHQILTPFLLRRLKSDVALEV
B12: ph-p SAM 1397-1577 D33K/D34R (Drosophila melanogaster, UniProt P39769); sequence looked up; chain GVGSGETNGLGTGGIVGVDAMALVDRLDEAMAEEKMQTEATPKLSESFPILGASTEVPPMSLPVQAAISAPSPLAMPLGSPLSVALPTLAPLSVVTSGAAPKSSEVNGTDRPPISSWSVDDVSNFIRELPGCQDYVKRFIQQEIDGQALLLLKEKHLVNAMGMKLGPALKIVAKVESIKEV
B13: ph-p 1397-1577 D16K/D17R (Drosophila melanogaster, UniProt P39769); chain GVGSGETNGLGTGGIVGVDAMALVDRLDEAMAEEKMQTEATPKLSESFPILGASTEVPPMSLPVQAAISAPSPLAMPLGSPLSVALPTLAPLSVVTSGAAPKSSEVNGTDRPPISSWSVKRVSNFIRELPGCQDYVDDFIQQEIDGQALLLLKEKHLVNAMGMKLGPALKIVAKVESIKEV
B14: CRYAA R21Q/G98R (Homo sapiens, UniProt P02489); sequence looked up; chain MDVTIQHPWFKRTLGPFYPSQLFDQFFGEGLFEYDLLPFLSSTISPYYRQSLFRTVLDSGISEVRSDRDKFVIFLDVKHFSPEDLTVKVQDDFVEIHRKHNERQDDHGYISREFHRRYRLPSNVDQSALSCSLSADGMLTFCGPKIQTGLDATHAERAIPVSREEKPTSAPSS
B15: SPOP D130E (Homo sapiens, UniProt O43791); sequence looked up; chain MSRVPSPPPPAEMSSGPVAESWCYTQIKVVKFSYMWTINNFSFCREEMGEVIKSSTFSSGANDKLKWCLRVNPKGLDEESKDYLSLYLLLVSCPKSEVRAKFKFSILNAKGEETKAMESQRAYRFVQGKEWGFKKFIRRDFLLDEANGLLPDDKLTLFCEVSVVQDSVNISGQNTMNMVKVPECRLADELGGLWENSRFTDCCLCVAGQEFQAHKAILAARSPVFSAMFEHEMEESKKNRVEINDVEPEVFKEMMCFIYTGKAPNLDKMADDLLAAADKYALERLKVMCEDALCSNLSVENAAEILILADLHSADQLKTQAVDFINYHASDVLETSGWKSMVVSHPHLVAEAYRSLASAQCPFLGPPRKRLKQS

Molecule	tested on	assay	test system	setting	scale	endpoint	result
B1 (ELAVL1 2-99)	itself	ITC	–	–	–	binding	binds
B2 (CRYAB)	itself	SEC	–	–	–	binding	binds
B3 (RAD52 1-418 K152A/R153A)	itself	mass photometry	–	–	–	binding	binds
B4 (NEMO 44-113)	itself	SEC-MALS	–	–	–	binding	binds
human ILF2	PP6C (human)	co-immunoprecipitation, IP-MS	CYB5R4 knockout cells	concentration not given	baseline: CYB5R4 knockout over parental	log2 fold change	0.05
B5 (FCY1)	itself	crystal structure	–	–	–	binding	binds
B6 (NINJ1)	itself	cryo-EM	–	–	–	binding	binds
B7 (TAF15 7-99 del28-42)	itself	ThT fluorescence, negative-stain TEM	–	peptide	–	binding	binds
B8 (spo0J K252A/K255A/K259A)	itself	SEC-MALS	–	–	–	binding	binds
B9 (NUT1 1-1132)	itself	cryo-EM	–	–	–	binding	binds
B10 (exbD 61-141)	itself	crystal structure	–	–	–	binding	binds
B11 (HELLS 1-460)	itself	SEC	–	–	–	binding	binds
B12 (ph-p SAM 1397-1577 D33K/D34R)	itself	AUC	–	–	–	binding	binds
B13 (ph-p 1397-1577 D16K/D17R)	itself	AUC	–	sedimentation velocity, self-association	–	binding	binds
B14 (CRYAA R21Q/G98R)	itself	SEC-MALS	–	1 hour h, pH 7.4, 37 °C	–	binding	binds
CUUCUUGUU (ssRNA)	U2AF2	sequencing of bound RNA	RNA	motif only	–	Kd	8.37 µM
B15 (SPOP D130E)	itself	negative-stain TEM	–	–	–	binding	binds
AUAAUUUCU (ssRNA)	U2AF2	sequencing of bound RNA	RNA	motif only	–	Kd	3.96 µM
human RGPD2	CYB5R4 knockout human cells	PP4 interaction, 3xFLAG-PP4C IP-MS	–	concentration not given	baseline: CYB5R4 KO over parental	log2 fold change	0.39

For quick reference, copied from above:
Molecule	tested on	assay	test system	setting	scale	endpoint	result
B8 (spo0J K252A/K255A/K259A)	itself	SEC-MALS	–	–	–	binding	binds
B9 (NUT1 1-1132)	itself	cryo-EM	–	–	–	binding	binds
